Results of several laboratories.
Each line is one published result; not all experiments were run side by side. Values joined by “and” are separate records of one study, mostly repeats; a detail may differ.
Target: SRSF protein kinase 1 (SRPK1, Homo sapiens, UniProt Q96SB4)

`COCC12C(=O)NC3C4(C(OC)CC1O)C1CC5(O)C(OC)C(O)C(OC(C)=O)(C1C5OC(=O)c1ccccc1)C3(O)C(OC)C24` (stereo not drawn) gave a remaining activity of 110% and 116% (kinase activity, inhibitor, ProQinase kinase profiling; 25 µM; relative to: control).
With `Cc1cccc(-c2ccc3nc(NC(=O)C4CCCCC4)nn3c2)c1` the remaining activity was 75% (enzyme activity, Dundee kinase panel; 10 µM).
The remaining binding of `CNC1C[S+]2CC[S+]3CC[S+](C1)[Ru-4]321([N]=C=S)[n]2c3ccc(OC)cc3c3c4c(c5cc(F)c[n+]1c5c32)C(=O)NC4=O` (stereo not drawn) is reported as 100% (KinomeScan; 0.1 µM; relative to: untreated).
The remaining activity of `Nc1nc(Nc2ccccc2)sc1C(=O)c1ccccc1` is reported as 26% (enzyme activity, inhibitor; 10 µM).
`COc1cccc(NC(=O)Nc2ccccc2O)c1` gave an inhibition of 11.6% (enzyme activity, inhibitor, FRET; 10 µM).
With `C=CC(=O)Nc1cccc(-c2cnc3[nH]cc(C(=O)NC(C)(C)C)c3n2)c1` the inhibition was -8% and -3% (kinase activity; 0.1 µM).
For `C=CC(=O)N1Cc2nc(-c3cc(-c4cc(Cl)cnc4Cl)c(F)cc3F)n(-c3ccncn3)c2C1`, the inhibition was 8.3% (cell-free assay, inhibitor; 1 µM).
`COc1cc(Nc2nccc(-c3cnn4nc(OC)ccc34)n2)cc(C(F)(F)F)c1` gave a remaining binding of 79% (binding, competition with immobilised ligand; 1 µM).
With `C=CC(=O)N1CCCC(n2c(=O)c3ncccc3n(Cc3ccc(Oc4ccccc4)cc3)c2=O)C1` (stereo not drawn) the remaining binding was 85% (cell-free assay, competition with immobilised ligand; 1 µM).
The remaining binding of `CCN1CCN(Cc2ccc(C(=O)Nc3ccc(C)c(NCc4cnc5[nH]ccc5c4OC)c3)cc2C(F)(F)F)CC1` is reported as 93% (binding, competition with immobilised ligand; 1 µM).
With `NC(=O)C[C@H]1CCc2sc3ncnc(O[C@H]4CC[C@H](N5CCOCC5)CC4)c3c21` the inhibition was 2% (enzyme activity, inhibitor; 10 µM).
For `CN(C(=O)N(C)c1ccc(C#N)cc1)c1ccccc1`, inhibition read “no inhibition” (kinase activity, inhibitor, Z'-LYTE; 10 µM, together with: ATP at apparent Km).
The remaining binding of `Nc1ncc2c(n1)-c1c([nH]c3ccc(C4=CCOCC4)cc13)CCC2` is reported as 81% (binding, competition with immobilised ligand; 1 µM).
The inhibition of `O=C(Nc1ccccc1)Nc1cccc(O)c1` is reported as 15.5% (enzyme activity, inhibitor, FRET; 10 µM).
For `CC(C)=CC1OC(C)(C)C2C=C3C(=O)C(Cl)=CC(O)C3C3C(O)C4OC4C(=O)C132` (stereo not drawn), the remaining binding was 91% (cell-free assay, competition with immobilised ligand; 10 µM).

Excerpt of the above:
The remaining activity of `Nc1nc(Nc2ccccc2)sc1C(=O)c1ccccc1` is reported as 26% (enzyme activity, inhibitor; 10 µM).
